Results pooled from the literature.
Compare with care: the assays were run in different laboratories. Several values in a cell are separate wells, animals, samples, runs or records. Numbers after ± are the reported error.

Molecule	cell line	assay	setting	EC50
CCC(=O)CCCCC[C@@H]1NC(=O)[C@H]2CCCCN2C(=O)[C@H]([C@@H](C)CC)NC(=O)[C@H](Cc2cn(OC)c3ccccc23)NC1=O	HFF	CellTiter proliferation	–	0.165 ± 0.033 µM
CC(C)(C)c1cc(C=C(C#N)C#N)cc(Br)c1O	human PBMC	T cell expansion, resazurin	7 days, added: concanavalin A 2 µg/mL	9.83 µM
F[P-](F)(F)(F)(F)F.F[P-](F)(F)(F)(F)F.[Ru+2].c1ccc(-c2ccccn2)nc1.c1ccc(-c2ccccn2)nc1.c1csc(-c2ccc(-c3cc4cccnc4c4ncccc34)s2)c1	SK-MEL-28	cell viability, resazurin	16 h drug-to-light interval, added: red light 625 nm, 100 J/cm2	14.3 µM and ~14 µM
CC12OC(=O)C1(C(O)C1C=CCCC1)NC(=O)C2CCN=[N+]=[N-] (stereo not shown)	Jurkat	DNA fragmentation, propidium iodide flow cytometry	24 h	4.5 µM
COc1cc(Nc2ncc(F)c(Nc3ccc4c(n3)NC(=O)C(C)(C)O4)n2)cc(OC)c1OC	HUVEC	VEGF-dependent tube outgrowth	–	0.0214 ± 0.0034 µM
corticotropin-releasing factor (human/rat)	rat hippocampal pyramidal neurons	CREB phosphorylation, agonist, item: pCREB Ser133	15 min	0.008 µM
CC(=O)c1cc2c(cc1C)C(C)(C)C(C)CC2(C)C (stereo not shown)	SH-SY5Y	cell growth or viability, resazurin	–	98 µM
CCC[C@@H](C)[C@H](O)[C@H](C)[C@H]1OC(=O)[C@H]([C@@H](C)O)NC(=O)[C@H](C(C)C)OC(=O)[C@H](C)[C@H](O)[C@H]([C@@H](C)CC)NC(=O)[C@@]2(C)CSC(=N2)[C@@]2(C)CSC(=N2)c2csc(n2)C[C@H](OC)[C@@H]1C	mouse neocortical neurons	spontaneous Ca2+ oscillations, inhibitor, fluo-3 Ca2+ imaging	–	0.0456 µM
CC(C)[C@@H]1NC(=O)[C@@H]2Cc3ccc(cc3)O[C@H]3C[C@H](NC3=O)C(=O)N3CCC[C@H]3C(=O)N[C@@H](Cc3ccc(O)cc3)C(=O)N[C@@H](C(=O)N[C@@H](C(C)C)C(=O)N2)c2cc(ccc2O)C[C@@H](C(=O)O)NC1=O	H9c2	cell viability, protective, Alamar blue	12 h, added: doxorubicin 8.6 µM	1.46 µM
O=S(=O)(F)Cc1ccccc1	SH-SY5Y	cell degeneration	concentration not given	> 1000 µM
[Cl][Au].c1ccc(P(c2ccccc2)c2ccccc2)cc1	BT-474	cell growth or viability, resazurin	72 h	3.32 µM
N.N.[Cl][Pt][Cl]	HAP1	cell growth or viability	–	0.31 µM
OO	ARPE-19	cell death, ATP content	16 h, added: TNF-alpha 10 ng/mL	650 µM
